Results collected from several papers.
Parts stem from different laboratories: compare values within a part only. Positions count from the first letter of the parent shown.

Set 1 — technique: aptamer microarray, sandwich; molecule type: DNA with 2'F-ANA; medium: in vitro; concentration: 200 nM; together with: Cy3 exosite-II aptamer, 400 nM; reading: higher = stronger binding; quantity: mean fluorescence intensity; strand: GGTTGGTGTGGTTGG
Target: Prothrombin, mature alpha-thrombin (F2, Homo sapiens, UniProt P00734)
Setting: whole 15-mer aptamer, many near background
2'F-ANA at 1 4 5 6 8 9 13 15: 51.1 a.u.
2'F-ANA at 2 7 9 10 11 12 15: 159 a.u.
2'F-ANA at 1 3 5 6 7 10 11 12 13: 49.4 a.u.
2'F-ANA at 2 4 5 6 7 8 10 11 13 15: 65.5 a.u.
2'F-ANA at 2 6 8 9 11 12 13 15: 407 a.u.
2'F-ANA at 2 3 4 7 12 13 14 15: 365 a.u.
2'F-ANA at 2 3 4 8 9 12 13 15: 615 a.u.
2'F-ANA at 2 3 4 8 10 11 12: 267 a.u.
2'F-ANA at 1 3 4 5 7 9 11 13 14: 42.2 a.u.
2'F-ANA at 1 3 4 7 9 11 15: 169 a.u.
2'F-ANA at 1 6 7 8 9 10 11 12 13 14: 51.3 a.u.
2'F-ANA at 1 3 4 5 6 7 11 13 15: 59.4 a.u.
2'F-ANA at 4 6 14 15: 147 a.u.
2'F-ANA at 1 2 5 6 7 9 10 11 12 14: 96.7 a.u.
2'F-ANA at 1 3 7 8 10 12 13: 107 a.u.
2'F-ANA at 4 5 9 10 11 13 14 15: 154 a.u.
2'F-ANA at 1 2 5 6 8 9 11: 72.8 a.u.
2'F-ANA at 1 3 4 8 11 13 14 15: 220 a.u.
2'F-ANA at 1 3 5 8 9 10 11 13 14 15: 46.8 a.u.

Set 2 — target: CCNF, cyclin fold, Cln2 fusion (human); technique: yeast growth competition, sequencing; medium: yeast; setting: strong parent motif; reference: not given; reading: higher = stronger binding; quantity: normalised enrichment score
Starting sequence: MICAL3 docking peptide (human); LQLRRQLSFSEDS; partner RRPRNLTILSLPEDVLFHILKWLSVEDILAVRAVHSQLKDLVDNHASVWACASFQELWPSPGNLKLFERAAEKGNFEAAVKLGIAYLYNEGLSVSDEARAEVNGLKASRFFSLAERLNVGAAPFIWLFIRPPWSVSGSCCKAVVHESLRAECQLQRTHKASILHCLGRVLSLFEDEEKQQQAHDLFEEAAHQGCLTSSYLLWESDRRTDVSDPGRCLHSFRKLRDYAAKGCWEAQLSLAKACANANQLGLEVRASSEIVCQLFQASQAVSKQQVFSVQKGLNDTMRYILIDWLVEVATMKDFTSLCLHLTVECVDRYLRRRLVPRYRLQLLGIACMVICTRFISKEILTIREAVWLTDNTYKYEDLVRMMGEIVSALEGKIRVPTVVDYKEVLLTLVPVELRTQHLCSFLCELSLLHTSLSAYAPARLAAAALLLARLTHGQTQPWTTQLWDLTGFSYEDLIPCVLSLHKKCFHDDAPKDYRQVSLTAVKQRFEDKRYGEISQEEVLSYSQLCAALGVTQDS
F9V: 0.0889
E11Y: 6.1
F9R: 0.551
Q2S: 6.15
Q6P: 1.23
Q6E: 3.3
S10E: 5.04
Q2A: 5.28

Set 3 — technique: universal PBM; molecule type: double-stranded DNA, one strand shown; medium: in vitro; concentration: 600 nM; reading: higher = stronger binding; quantity: E-score
Target: Sal-like protein 4, full length isoform A (SALL4, Homo sapiens, UniProt Q9UJQ4, residues 1-1053)
UniProt Q9UJQ4, sequence (whole entry, looked up): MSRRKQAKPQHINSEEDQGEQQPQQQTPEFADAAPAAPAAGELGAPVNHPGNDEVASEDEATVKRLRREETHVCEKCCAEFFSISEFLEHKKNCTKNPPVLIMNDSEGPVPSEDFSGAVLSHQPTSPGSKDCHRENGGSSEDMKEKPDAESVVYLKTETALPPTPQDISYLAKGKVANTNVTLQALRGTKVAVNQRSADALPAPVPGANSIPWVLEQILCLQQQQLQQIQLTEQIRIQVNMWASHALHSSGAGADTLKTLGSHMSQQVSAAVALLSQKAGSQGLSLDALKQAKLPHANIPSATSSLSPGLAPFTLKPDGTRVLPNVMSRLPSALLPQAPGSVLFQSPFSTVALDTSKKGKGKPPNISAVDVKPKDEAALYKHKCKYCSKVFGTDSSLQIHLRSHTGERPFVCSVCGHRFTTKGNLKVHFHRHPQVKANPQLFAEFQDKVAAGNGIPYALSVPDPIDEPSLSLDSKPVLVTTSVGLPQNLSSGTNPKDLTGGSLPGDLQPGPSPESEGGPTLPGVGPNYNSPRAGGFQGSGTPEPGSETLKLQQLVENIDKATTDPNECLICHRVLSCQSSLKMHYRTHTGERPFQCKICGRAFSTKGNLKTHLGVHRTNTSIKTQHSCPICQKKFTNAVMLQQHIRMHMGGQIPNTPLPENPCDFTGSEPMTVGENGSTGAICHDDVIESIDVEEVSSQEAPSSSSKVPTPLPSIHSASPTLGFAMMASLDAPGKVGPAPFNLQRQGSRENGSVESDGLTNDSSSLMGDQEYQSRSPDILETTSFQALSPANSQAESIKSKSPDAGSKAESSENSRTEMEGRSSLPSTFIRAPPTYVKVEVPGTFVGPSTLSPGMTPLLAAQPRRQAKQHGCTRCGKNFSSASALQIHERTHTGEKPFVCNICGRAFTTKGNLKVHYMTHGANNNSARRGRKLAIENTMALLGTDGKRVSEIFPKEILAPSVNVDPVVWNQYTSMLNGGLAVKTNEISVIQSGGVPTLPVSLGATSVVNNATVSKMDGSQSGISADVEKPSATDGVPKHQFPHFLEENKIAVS
Setting: 8-mer, flanks averaged, mean of replicates
ATGGGCCG: -0.196
GAATTCTA: 0.188
AGGCTGGC: -0.303
CCAGATCC: -0.378
ACGGGTTG: -0.182
GAGTTAGA: -0.0365
CTTACGGC: -0.193
TAGCGTAA: 0.121
TAAAGACA: 0.0783
ATTACTCG: 0.208
CCAAGTAG: -0.153
TGCGACAA: 0.0752
ATACCTTG: 0.175
ACATCATA: 0.302
ACCGGAAG: -0.0119
TCGGCTAA: -0.0942
ATTTTCCG: 0.319
AAGCAGAT: 0.0414
ATTAGTAC: 0.22
AGCCGGAG: -0.218
ACCGTTCT: -0.0799
CTTCGCTC: -0.278
GTTAATTA: 0.283

Mixed results
PhoQ, residues 284 288 289 292 302 303 AGCYAI — fold induction (PhoP, residues 12 14 15 18 19 LHATL (Escherichia coli, UniProt P23836); Sort-seq, measured: YFP reporter; E. coli; PhoQ-PhoP variant library, together with: 10 µM Mg2+; reference: high Mg2+ state, higher = stronger signaling): 33

Some of these lines once more (set 3):
CTTACGGC: -0.193
TAGCGTAA: 0.121
TAAAGACA: 0.0783
ATTACTCG: 0.208
